Published values of several laboratories.
Each line is one published result; not all experiments were run side by side. “And” joins repeats or separate records; there may be more than shown. ± gives the spread as reported. ≈ marks a conversion by molar mass, not a printed value.

CC(=O)c1c(O)c(C)c(O)c2c1OC1=CC(=O)C(=C(C)NCCCC(=O)OC3OC4OC5(C)CCC6C(C)CCC(C3C)C46OO5)C(=O)C12C (stereo not drawn)
delay of parasitaemia (Plasmodium berghei; ANKA GFP-transfected, NMRI mice; oral, dose not given): 29 days

CCOC(=O)C1(Cc2ccc(-c3ccccc3)cc2)Oc2cc(F)ccc2N(Cc2ccc(-c3ccccc3)cc2)C1=O (stereo not drawn)
inhibition (Arabidopsis thaliana; stem length, petri dish germination; Col-0, 1/2 MS medium; 50 µg/mL, 7 days, 22 °C, dark): 24.2%

O=S(=O)(c1ccc(-c2ccc3ncnc(Nc4ccc(OCc5cccc(F)c5)c(Cl)c4)c3c2)cc1)N1CCOCC1
EC50 (Plasmodium falciparum; parasite growth, SYBR Green; D6; blood stage): 200 nM

CN(C)c1nc(NCc2ccc(Oc3ccccc3)cc2)c(/N=N/c2ccc(Cl)cc2)c(N(C)C)n1
mortality (Plutella xylostella; leaf dipping; 200 mg/L, 96 h): 53.3 ± 5.6%

CC[C@H](C)CCCCC(=O)N[C@@H](CCN)C(=O)N[C@H](C(=O)N[C@@H](CCN)C(=O)N[C@H]1CCNC(=O)[C@H]([C@@H](C)O)NC(=O)[C@H](CCN)NC(=O)[C@H](CCN)NC(=O)[C@H](CC(C)C)NC(=O)[C@@H](CC(C)C)NC(=O)[C@H](CCN)NC1=O)[C@@H](C)O
MIC fold change (Escherichia coli; daily serial passaging; ATCC 8739; highest sub-MIC, 24 days; relative to: initial MIC): 1.79

CCCCCCCC(=O)NCCCC[C@H](NC(=O)CCCCCCC)C(=O)N[C@@H](CCCCNC(=O)CCCCCCC)C(=O)NCC(=O)NCC(=O)NCC(=O)N[C@@H](CS)C(=O)N[C@@H](CCCNC(=N)N)C(=O)N[C@@H](CCCCN)C(=O)N1CCC[C@H]1C(N)=O
MIC (Candida albicans; broth microdilution; 58288, RPMI-1640; 48 h, 30 °C): > 128 µM

CCOC(=O)C1(Cc2cc(F)cc(F)c2)Oc2cc(F)ccc2N(Cc2cc(F)cc(F)c2)C1=O (stereo not drawn)
inhibition (Arabidopsis thaliana; stem length, petri dish germination; Col-0, 1/2 MS medium; 200 µg/mL, 7 days, 22 °C, dark): 41.6%

Cc1cc(C(=O)Nc2nc3cccc(C)c3n2[C@H]2CCCCN(C(=O)/C=C/CN(C)C)C2)ccn1
EC50 fold shift (Trypanosoma brucei; Alamar Blue; 2T1, Tb927.11.12410 overexpression; relative to: parental 2T1 line): 6.25 fold and 7.2 fold and 4.83 fold and 6.74 fold

O=S(=O)(c1ccc(-c2ccc3ncnc(Nc4ccc(OCc5cccc(Br)c5)c(Cl)c4)c3c2)cc1)N1CCOCC1
EC50 (Plasmodium falciparum; parasite growth, SYBR Green fluorescence; C235 (TM91C235), drug-resistant): 410 nM

C[C@H]1[C@@H](OCc2nnn(-c3cc4ccc(O)cc4oc3=O)c2CO[C@H]2O[C@@H]3O[C@@]4(C)CC[C@H]5[C@H](C)CC[C@@H]([C@H]2C)[C@@]35OO4)O[C@@H]2O[C@@]3(C)CC[C@H]4[C@H](C)CC[C@@H]1[C@@]24OO3
cure rate (Plasmodium berghei; NK65/GFP, mouse; subcutaneous, 22 µmol/kg daily for four days): 100%

C#CCN1C(=O)C(CC#C)(C(=O)OCC)Oc2ccccc21 (stereo not drawn)
mRNA level (Arabidopsis thaliana; measured: KARI; Col-0, leaves; concentration not given, 72 h, 30-day-old plants; relative to: water-treated): ~4 fold

CN1CCN(S(=O)(=O)c2ccc(-c3ccc4ncnc(Nc5ccc(OCc6ccccc6)c(Cl)c5)c4c3)cc2)CC1
EC50 (Plasmodium falciparum; parasite growth, SYBR Green fluorescence; W2, drug-resistant): 51 nM

O=C(O)C(Cl)Cl.OCCN(CCO)CCO
herbicidal inhibition (Xanthium sibiricum; 15 mg/mL, 21 days, pre-emergence, greenhouse): 0%

O=C1NC2(CC2)COc2ncc(F)cc2[C@H]2COCCN2c2ccn3ncc1c3n2
epididymis weight (Sprague-Dawley rat, male, epididymides; oral, 20 mg/kg/day, end of treatment, 4-week repeated-dose toxicity): 1.01 ± 0.088 g

Fc1cccc(COc2ccc(Nc3ncnc4ccc(-c5ccc(CN6CCOCC6)cc5)cc34)cc2Cl)c1
EC50 (Plasmodium falciparum; parasite growth, SYBR Green; D6; blood stage): 64 nM

CCOC(=O)C1(Cc2ccc(F)cc2)Oc2cc(F)ccc2N(Cc2ccc(F)cc2)C1=O (stereo not drawn)
inhibition (Arabidopsis thaliana; stem length, petri dish germination; Col-0, 1/2 MS medium; 200 µg/mL, 7 days, 22 °C, dark): 47.6%

C[N+]1=C2C(c3ccc([N+](=O)[O-])cc3)=[N+]([O-])c3ccccc3N2CCC1
MIC50 (Fusobacterium nucleatum; microbial growth): 0.25 µg/mL

CCCCCCCC(=O)NCCCC[C@H](NC(=O)CCCCCCC)C(=O)N[C@@H](CCCCNC(=O)CCCCCCC)C(=O)NCC(=O)NCC(=O)NCC(=O)N[C@@H](CS)C(=O)N[C@@H](CCCNC(=N)N)C(=O)N[C@@H](CCCCN)C(=O)N1CCC[C@H]1C(=O)N[C@@H](CS)C(=O)N[C@@H](CCCNC(=N)N)C(=O)N[C@@H](CCCCN)C(=O)N1CCC[C@H]1C(=O)N[C@@H](CS)C(=O)N[C@@H](CCCNC(=N)N)C(=O)N[C@@H](CCCCN)C(=O)N1CCC[C@H]1C(=O)N[C@@H](CS)C(=O)N[C@@H](CCCNC(=N)N)C(=O)N[C@@H](CCCCN)C(=O)N1CCC[C@H]1C(N)=O
MIC (Candida albicans; broth microdilution; SP 3931, RPMI-1640; 48 h, 30 °C): 32 µM (≈ 88.4 µg/mL)

CCOC(=O)C1(Cc2c(F)cccc2F)Oc2cc(F)ccc2N(Cc2c(F)cccc2F)C1=O (stereo not drawn)
inhibition (Arabidopsis thaliana; root length, petri dish germination; Col-0, 1/2 MS medium; 200 µg/mL, 7 days, 22 °C, dark): 39.8%

Fc1cccc(COc2ccc(Nc3ncnc4ccc(-c5ccc(N6CCOCC6)cc5)cc34)cc2Cl)c1
EC50 (Plasmodium falciparum; parasite growth, SYBR Green fluorescence; C235 (TM91C235), drug-resistant): 290 nM

CCOC(=O)C1(CC#N)Oc2cc(F)ccc2N(CC#N)C1=O (stereo not drawn)
inhibition (Arabidopsis thaliana; root length, petri dish germination; Col-0, 1/2 MS medium; 50 µg/mL, 7 days, 22 °C, dark): 55.3%

O=C(c1ccc(-c2ccc3ncnc(Nc4ccc(OCc5cccc(F)c5)c(Cl)c4)c3c2)cc1)N1CCCCC1
EC50 (Plasmodium falciparum; parasite growth, SYBR Green fluorescence; C235 (TM91C235), drug-resistant): 360 nM

C=CCN1C(=O)C(CC=C)(C(=O)OCC)Oc2cc(F)ccc21 (stereo not drawn)
seed germination inhibition (Arabidopsis thaliana; Col-0; 50 µg/mL): inhibited

O=S(=O)(c1ccc(-c2ccc3ncnc(Nc4ccc(OCc5cccc(F)c5)c(Cl)c4)c3c2)cc1)N1CCCC1
EC50 (Plasmodium falciparum; parasite growth, SYBR Green; D6; blood stage): 200 nM

CCOC(=O)C1(Cc2ccc(OC)cc2)Oc2cc(F)ccc2N(Cc2ccc(OC)cc2)C1=O (stereo not drawn)
inhibition (Arabidopsis thaliana; stem length, petri dish germination; Col-0, 1/2 MS medium; 200 µg/mL, 7 days, 22 °C, dark): 65.4%

CCCCCOc1ccc(-c2ccc3ncnc(Nc4ccc(OCc5cccc(F)c5)c(Cl)c4)c3c2)c(F)c1F
EC50 (Plasmodium falciparum; parasite growth, SYBR Green fluorescence; C235 (TM91C235), drug-resistant): > 15000 nM

Cc1ccc(N2CC3CC(C2)N3C)cc1C(=O)NC1(c2ccc3c4c(cccc24)C(=O)N3C)CC1
inhibition (Betacoronavirus 1; viral replication; Huh-7, OC43; 46.88 nM): 0%

Repeated from above:
CN1CCN(S(=O)(=O)c2ccc(-c3ccc4ncnc(Nc5ccc(OCc6ccccc6)c(Cl)c5)c4c3)cc2)CC1
EC50 (Plasmodium falciparum; parasite growth, SYBR Green fluorescence; W2, drug-resistant): 51 nM

O=C(O)C(Cl)Cl.OCCN(CCO)CCO
herbicidal inhibition (Xanthium sibiricum; 15 mg/mL, 21 days, pre-emergence, greenhouse): 0%
